Results from different studies.
Numbered parts are unrelated; each lists some results of a single study.

Set 1 — method: universal PBM; molecule type: double-stranded DNA, one strand shown; matrix: in vitro; tested at: not given; reading: higher = stronger binding
Target: Sal-like protein 4, full length isoform B (SALL4, Homo sapiens, UniProt Q9UJQ4-2, residues 1-616)
Setting: 8-mer, flanks averaged, mean of replicates
Target sequence (chain): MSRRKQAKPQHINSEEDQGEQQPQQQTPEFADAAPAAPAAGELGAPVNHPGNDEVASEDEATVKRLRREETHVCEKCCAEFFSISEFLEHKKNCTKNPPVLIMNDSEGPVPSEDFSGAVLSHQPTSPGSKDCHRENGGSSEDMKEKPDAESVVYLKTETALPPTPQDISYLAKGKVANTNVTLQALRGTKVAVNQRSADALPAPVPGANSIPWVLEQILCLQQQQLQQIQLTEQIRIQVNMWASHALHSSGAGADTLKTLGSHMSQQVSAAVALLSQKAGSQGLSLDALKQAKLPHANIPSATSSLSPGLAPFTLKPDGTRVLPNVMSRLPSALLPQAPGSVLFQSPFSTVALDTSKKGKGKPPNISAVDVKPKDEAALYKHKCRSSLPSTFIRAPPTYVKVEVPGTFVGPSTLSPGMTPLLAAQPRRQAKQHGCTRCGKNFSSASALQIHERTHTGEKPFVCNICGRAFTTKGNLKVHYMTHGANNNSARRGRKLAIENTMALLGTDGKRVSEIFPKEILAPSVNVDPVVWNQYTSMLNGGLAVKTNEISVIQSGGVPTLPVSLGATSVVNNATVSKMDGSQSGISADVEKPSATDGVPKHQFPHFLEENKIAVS
Strand	E-score
ATTAAGGA	0.214
ATCGGTAC	-0.00153
CATACAAC	0.143
CTTTAGTC	0.027
ACCCCTCC	-0.266
TCTAATCA	0.141
AGCGTGAG	-0.124
ACATAGAG	0.014
AGGAAATA	0.353
AGCGGATC	-0.184
AAGCGACG	-0.211
GCCAGCAC	-0.206
GTAAACCA	0.0629
ACAGGTTG	-0.016
TAGGCACA	-0.0177
CTAGCTGC	-0.341
AACGACCC	-0.216
CGTTTTAG	0.0615

Set 2 — method: protein binding microarray; molecule type: double-stranded DNA, one strand shown; matrix: in vitro; tested at: not given; baseline: not given; reading: higher = stronger binding
Target: Histone acetyltransferase KAT6A, winged helix 2, GST fusion (KAT6A, Homo sapiens, UniProt Q92794, residues 85-181)
Setting: 8-mer, flanks averaged, mean of 2 arrays, mostly near background
Target sequence (chain): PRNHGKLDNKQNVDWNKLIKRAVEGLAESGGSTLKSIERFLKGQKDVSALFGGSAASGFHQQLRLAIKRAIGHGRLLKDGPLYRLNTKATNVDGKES
Strand	E-score
ACTAACGG	0.0182
CACGCCCC	0.197
CAGGGCAA	-0.00732
GACTTGGC	-0.0909
CACATGAA	-0.0483
AAGCTGTG	0.0361
CTTAGAGC	0.126
AGGGTTGA	-0.0928
ACCTATAT	0.00609
AGCCTGGA	0.0258
AGCTGCAG	-0.0206
ATTTTGCA	0.0655
CCATTCAC	-0.00447
CCGAGAGA	0.0827
GGTTATTA	-0.197
GCGCGTAC	0.0754
AACCCTGA	-0.0652
CCACTGGA	0.0294
GGCATCAC	-0.0224
AATGTAAA	-0.0278
AGGTCTCC	-0.0328
ACGTAAAG	-0.234
AGCCAGCT	0.0403
CTGGCCCC	0.264
ATTAGGCA	0.0163

Set 3 — method: RNA Bind-n-Seq; molecule type: RNA; matrix: in vitro; tested at: 100 nM; baseline: input RNA pool; reading: higher = stronger binding
Target: RING finger protein unkempt homolog, zinc fingers 1-6, SBP tag (UNK, Homo sapiens, UniProt Q9C0B0, residues 30-357)
UniProt Q9C0B0, sequence (30-357, looked up): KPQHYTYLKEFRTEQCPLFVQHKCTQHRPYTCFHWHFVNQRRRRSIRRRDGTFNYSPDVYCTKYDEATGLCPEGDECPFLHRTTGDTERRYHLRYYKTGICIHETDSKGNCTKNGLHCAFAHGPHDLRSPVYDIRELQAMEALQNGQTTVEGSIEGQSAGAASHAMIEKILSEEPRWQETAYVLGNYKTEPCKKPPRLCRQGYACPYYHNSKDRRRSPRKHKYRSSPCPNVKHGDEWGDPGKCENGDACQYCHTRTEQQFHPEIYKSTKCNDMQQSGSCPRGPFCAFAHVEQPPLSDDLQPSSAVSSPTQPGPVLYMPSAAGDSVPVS
Setting: RNA with constant flanks, vertebrate orthologous sites, ends assumed
Strand	bound/input enrichment [ratio]
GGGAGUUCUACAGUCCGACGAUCGAGCUAAAGGAGUUAGCGUCUUUAUUUUUGUAUCAAAGAUAAAGGUUAUUUUGAAAUUCCUAGGGUUUUUACACAACUCCGAAAUCUGUUGCUUUUGUAAACAAAUUGUUUGCCCUUAGGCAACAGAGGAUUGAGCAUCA	0.408
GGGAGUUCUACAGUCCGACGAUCCGUGCUUAUACUCUUCUAGGGAAGAGAAGAAUUGGGGAAAACUGUCCCCUUUUUAUGGACUAGUUUGUUUCUAAAUUAUGACCAAAAAAUAUUUUGCUAUUUCUUUCUUUAUAUAUGGACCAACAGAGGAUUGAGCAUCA	0.649
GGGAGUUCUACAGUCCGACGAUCUUAUUUUCAAUCUCUUCUCCCCCUUCCUGAUUUUAAAAGCCCUUCUUUUUUUAGGCAUAUGUAGUAAUAGUAGCAAACGAAAAAAAAUUUAAUUUGGGCAACUUUGAUUCUUAAAACAGACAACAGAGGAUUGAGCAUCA	1.12
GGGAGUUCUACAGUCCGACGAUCGGGAUAUAUUGAAUAGUAUUAAACAUUUUCAUCUUCCUUUACCUUUUAUCCCUUAAUAUCUAGUCUACUUUUUUAAAUUUCAGACUUCAAUGCUCUUUGAAUUGAUAAUUCCAAUUUUCACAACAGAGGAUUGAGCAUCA	1.6
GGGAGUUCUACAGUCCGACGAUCCUCUCCGUUACCCCUAAGGUAGAACUUUUUAAAAUUGUAUCACCGCCACUUCUAAAAAUUUAGCAAUAUUGGAAGAAAACGCUAAUGAAGAAAUUUUGCUCAUUGUUUUGCAAACCAAAUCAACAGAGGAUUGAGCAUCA	0.784
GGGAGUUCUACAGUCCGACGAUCAGAAAACUUUAGCCAAGAAUCUGAAAGUAGAAAUACUGGUUCCUGGUUGUCCUCCUCUCUAAGAAAUAGAUGCACACCCUUAUUUUCAAGGAGACGUCGAGAAGGAAGAGAUGAGUCUACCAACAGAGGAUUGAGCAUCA	0.273
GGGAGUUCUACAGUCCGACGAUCGUAUUUUCAAACAAUAGGAAGCUUUGGUUUUGUUUUUUUUUUUCUCUCUUUUUUACAGUUUAGUGUAUCAGGUUUGUAUAUGGAAGACUAAACUCAUGCUUAUUUGCUAAAUGUGGGCUUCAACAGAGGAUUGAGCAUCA	1.27
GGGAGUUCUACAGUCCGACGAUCAUUUUUUAAAGUUUUUUUAAUUUAAGUUUUCCUUUUGGGGGUAAAGUUUGCUCUACCAAAUAGUGAUUGUAACAAAUUGAUCUGUUUUGGAUGUUGCUAUAGUGACAUGCAGUUAUAUAUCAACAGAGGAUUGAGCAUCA	0.681
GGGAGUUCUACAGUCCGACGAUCCUCCCCGUAACCCCUAAAAUAGAACUUUUUAAAAUUGUGUCACCACCACUUCUAAAAAUUUAGCAAUAUUAGUAGAAAACACUAAGACAUUGUGCUCAUUGUUUUGCAAAUGAAAUAGUCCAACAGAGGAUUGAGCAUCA	3.62
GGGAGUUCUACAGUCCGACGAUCGUCUAGUGCUUAAGCCAGCAAUUGUAGAAUGCUAUUUAUUUGUGUCUGUAAGUUUGUACAUAUCUUAACCUCAUAUUGUUGCUGAGUUUCAUUUUGAGGAAAGUGAGUUUGAGUUUUAUUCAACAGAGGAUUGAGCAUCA	0.948
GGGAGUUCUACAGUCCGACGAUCCAAUUCGAUGGUUGAGGGUUCAGAACUCAAAAAGGUUCGCUCCAACUCCAGGAUUUACCACAGGUAUUUUUUACUGGAUGCCGACAUGCAGAGCCUGAGGUGGGAGCCAUCUAAGAAGGACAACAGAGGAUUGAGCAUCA	0.14

Set 4 — method: aptamer microarray, sandwich; molecule type: DNA with 2'F-ANA; matrix: in vitro; tested at: 200 nM; with: Cy3 exosite-II aptamer, 400 nM; reading: higher = stronger binding; strand: GGTTGGTGTGGTTGG
Target: Prothrombin, mature alpha-thrombin (F2, Homo sapiens, UniProt P00734)
Setting: whole 15-mer aptamer, many near background
Modification	mean fluorescence intensity
2'F-ANA at 1 3 4 5 8 9 10 13 14 15	48.1 a.u.
2'F-ANA at 1 2 4 6 8 9 10 11 13 14 15	51 a.u.
2'F-ANA at 1 4 7 9 10 11 13 14 15	45.3 a.u.
2'F-ANA at 1 2 4 6 7 12	239 a.u.
2'F-ANA at 1 2 5 6 7 10 11 12 13 14 15	49.3 a.u.
2'F-ANA at 1 3 4 5 6 7 12 15	128 a.u.
2'F-ANA at 2 4 5 6 9 11 12 13	82.8 a.u.
2'F-ANA at 3 4 5 10 13 15	66.9 a.u.
2'F-ANA at 1 3 4 8 10 11 12 13 14 15	105 a.u.
2'F-ANA at 1 2 3 4 7 14	72.1 a.u.
2'F-ANA at 3 4 5 7 8 12 15	240 a.u.
2'F-ANA at 1 2 4 5 6 7 8 9 11 15	58.3 a.u.
2'F-ANA at 1 3 6 9 12 14	95.2 a.u.
2'F-ANA at 7 10 11 12 13 15	173 a.u.
2'F-ANA at 1 3 5 6 9 10 12 14	55.6 a.u.
2'F-ANA at 3 9 10 11	519 a.u.
2'F-ANA at 1 2 3 4 5 7 12 14 15	48.5 a.u.
2'F-ANA at 1 2 7 10 11 12 15	66.7 a.u.
2'F-ANA at 1 2 3 5 8 9 11 13 15	54.9 a.u.
2'F-ANA at 1 2 4 5 7 8 9 10 11 12 14 15	49.1 a.u.
2'F-ANA at 1 3 4 5 6 7 8 9 11 12 13 14 15	50.3 a.u.
2'F-ANA at 1 3 6 10 11 12	99.8 a.u.
2'F-ANA at 1 3 4 7 9 10 12 15	85.1 a.u.
2'F-ANA at 2 4 5 6 7 8 10 12 14 15	105 a.u.
2'F-ANA at 2 5 12 13 15	106 a.u.

Set 5 — method: protein-binding microarray; molecule type: double-stranded DNA, one strand shown; matrix: in vitro; tested at: 2200 nM top; setting: 60-bp whole probe; with: salmon DNA 0.4 mg/ml; baseline: random background probes; reading: higher = stronger binding; constant ends, left off below: GCCTAGCAC … GTCTTGATTCGCTTGACGCTGCTG
Target: Interferon regulatory factor 7, full length, phosphomimetic (IRF7, Homo sapiens, UniProt Q92985, residues 1-503, S471D/S472D/S475D/S476D/S477D/S483D/S484D/S487D)
Construct (chain): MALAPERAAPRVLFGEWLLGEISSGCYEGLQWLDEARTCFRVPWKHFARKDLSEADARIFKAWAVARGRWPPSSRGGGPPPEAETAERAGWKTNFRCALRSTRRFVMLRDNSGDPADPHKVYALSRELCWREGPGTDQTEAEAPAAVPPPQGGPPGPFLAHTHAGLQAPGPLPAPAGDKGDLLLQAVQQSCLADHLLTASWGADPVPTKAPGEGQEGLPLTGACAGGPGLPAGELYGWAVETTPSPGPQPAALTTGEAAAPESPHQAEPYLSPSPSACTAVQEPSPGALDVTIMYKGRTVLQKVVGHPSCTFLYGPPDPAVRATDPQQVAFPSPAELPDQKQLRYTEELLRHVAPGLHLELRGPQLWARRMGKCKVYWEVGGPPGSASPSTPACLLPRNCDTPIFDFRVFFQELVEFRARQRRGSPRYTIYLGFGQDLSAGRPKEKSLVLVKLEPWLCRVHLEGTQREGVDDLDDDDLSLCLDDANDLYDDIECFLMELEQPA
Strand	fitted relative affinity [z-score]
GGCGATTTCAGTCTCGAGACGTGCTAG	0.502
GACGGTTTCCTTTCCTTGACGTGCTAG	4.77
ACGTTTTTCATTTTTTTTTTGTGCTAG	4.27
GACGGTATCGACACTGGGGTCGTGCTA	-0.33
TTGTTTTTCATTATTGTCTTGTGCTAG	2.66
TTAGGTTTCCTTTCCCTTAAGTGCTAG	4.36
GACGATATCAGAATCGAGACGTGCTAG	-0.0269
TCACATATACACTGTGTATCTGTGCTA	1.27
AATTTTTACTTTCTGAATGCGTGCTAG	4.61
TCATCTTTGCTCATTTTTACTGTGCTA	1.37
TCAACTCTCTGCTTGTGACTGTGCTAG	1.29
GACTGTATCCTACTGCTGACGTGCTAG	0.983
GACGAACTGGCGACTGGAGACGTGCTA	-0.28
TTAGAACCGAGACTGGATTAGTGCTAG	-0.279
TTAGATATCGGGTATAGATTAGTGCTA	-0.121
GAGGATATCGGGACTGGAGACGTGCTA	-0.407

A few entries again (set 4):
Modification	mean fluorescence intensity
2'F-ANA at 1 3 4 5 6 7 12 15	128 a.u.
2'F-ANA at 1 3 6 10 11 12	99.8 a.u.
2'F-ANA at 1 2 4 6 8 9 10 11 13 14 15	51 a.u.
2'F-ANA at 1 2 3 5 8 9 11 13 15	54.9 a.u.
2'F-ANA at 1 2 5 6 7 10 11 12 13 14 15	49.3 a.u.
2'F-ANA at 3 9 10 11	519 a.u.
2'F-ANA at 1 2 4 5 7 8 9 10 11 12 14 15	49.1 a.u.
2'F-ANA at 3 4 5 10 13 15	66.9 a.u.
2'F-ANA at 2 4 5 6 7 8 10 12 14 15	105 a.u.
2'F-ANA at 2 4 5 6 9 11 12 13	82.8 a.u.
2'F-ANA at 1 3 4 5 8 9 10 13 14 15	48.1 a.u.
